Experimental data gathered from unrelated publications.
Compare with care: the assays were run in different laboratories. “And” joins repeats or separate records; there may be more than shown. Numbers after ± are the reported error.
Chain of UniProt P42866 (whole entry, looked up): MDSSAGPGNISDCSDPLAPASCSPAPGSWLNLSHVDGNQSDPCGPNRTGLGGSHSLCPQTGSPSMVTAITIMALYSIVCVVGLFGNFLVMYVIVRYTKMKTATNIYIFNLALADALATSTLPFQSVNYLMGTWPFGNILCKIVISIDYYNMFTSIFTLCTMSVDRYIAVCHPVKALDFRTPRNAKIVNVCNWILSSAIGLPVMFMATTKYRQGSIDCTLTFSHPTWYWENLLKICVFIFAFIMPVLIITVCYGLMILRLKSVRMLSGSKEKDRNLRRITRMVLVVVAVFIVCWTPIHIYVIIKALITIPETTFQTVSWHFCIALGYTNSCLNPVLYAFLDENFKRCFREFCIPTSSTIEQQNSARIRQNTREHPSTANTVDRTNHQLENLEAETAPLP
Chain of UniProt Q99685 (whole entry, looked up): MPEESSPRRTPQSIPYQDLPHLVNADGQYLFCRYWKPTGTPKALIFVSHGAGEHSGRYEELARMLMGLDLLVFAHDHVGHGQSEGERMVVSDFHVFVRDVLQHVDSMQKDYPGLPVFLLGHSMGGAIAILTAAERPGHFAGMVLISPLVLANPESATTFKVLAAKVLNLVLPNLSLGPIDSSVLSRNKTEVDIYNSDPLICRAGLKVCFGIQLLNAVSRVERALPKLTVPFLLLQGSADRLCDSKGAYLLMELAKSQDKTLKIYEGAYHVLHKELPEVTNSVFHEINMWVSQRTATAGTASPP
Chain of UniProt P21553 (whole entry, unmodified, looked up): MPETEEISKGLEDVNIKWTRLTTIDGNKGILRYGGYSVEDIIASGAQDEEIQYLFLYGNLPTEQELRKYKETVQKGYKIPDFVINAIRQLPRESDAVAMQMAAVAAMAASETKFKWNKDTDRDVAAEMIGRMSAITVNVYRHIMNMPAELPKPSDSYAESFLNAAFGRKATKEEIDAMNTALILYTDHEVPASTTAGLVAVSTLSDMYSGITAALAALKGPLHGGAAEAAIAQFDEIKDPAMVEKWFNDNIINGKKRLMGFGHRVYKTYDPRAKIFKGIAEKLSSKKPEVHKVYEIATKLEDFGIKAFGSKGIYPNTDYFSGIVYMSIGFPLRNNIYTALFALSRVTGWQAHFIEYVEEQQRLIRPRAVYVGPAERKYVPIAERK
Chain of UniProt P31641 (whole entry, unmodified, looked up): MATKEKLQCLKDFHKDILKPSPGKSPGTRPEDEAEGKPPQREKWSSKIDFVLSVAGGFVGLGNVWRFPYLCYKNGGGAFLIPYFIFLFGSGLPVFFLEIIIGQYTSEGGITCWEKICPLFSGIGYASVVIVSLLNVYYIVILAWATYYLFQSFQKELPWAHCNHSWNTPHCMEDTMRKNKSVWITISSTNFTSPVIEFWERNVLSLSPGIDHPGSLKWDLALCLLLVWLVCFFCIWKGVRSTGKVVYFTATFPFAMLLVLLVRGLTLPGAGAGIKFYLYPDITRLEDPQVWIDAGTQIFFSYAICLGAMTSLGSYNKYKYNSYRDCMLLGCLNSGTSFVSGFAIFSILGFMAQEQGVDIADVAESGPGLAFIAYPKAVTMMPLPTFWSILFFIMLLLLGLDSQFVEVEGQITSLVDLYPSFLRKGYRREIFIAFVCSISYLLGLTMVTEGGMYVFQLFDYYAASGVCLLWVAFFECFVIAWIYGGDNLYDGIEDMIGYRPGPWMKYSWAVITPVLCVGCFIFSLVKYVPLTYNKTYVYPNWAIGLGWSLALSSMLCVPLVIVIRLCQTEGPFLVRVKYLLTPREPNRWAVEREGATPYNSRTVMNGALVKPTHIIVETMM
Chain of UniProt P09936 (whole entry, looked up): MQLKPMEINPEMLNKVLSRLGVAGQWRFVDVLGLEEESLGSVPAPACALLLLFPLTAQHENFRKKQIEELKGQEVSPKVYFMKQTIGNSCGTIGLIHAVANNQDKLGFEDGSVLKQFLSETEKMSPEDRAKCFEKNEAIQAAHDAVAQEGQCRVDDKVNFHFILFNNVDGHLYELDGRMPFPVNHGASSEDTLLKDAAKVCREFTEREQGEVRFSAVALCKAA
Chain of UniProt Q8WU58 (whole entry, looked up): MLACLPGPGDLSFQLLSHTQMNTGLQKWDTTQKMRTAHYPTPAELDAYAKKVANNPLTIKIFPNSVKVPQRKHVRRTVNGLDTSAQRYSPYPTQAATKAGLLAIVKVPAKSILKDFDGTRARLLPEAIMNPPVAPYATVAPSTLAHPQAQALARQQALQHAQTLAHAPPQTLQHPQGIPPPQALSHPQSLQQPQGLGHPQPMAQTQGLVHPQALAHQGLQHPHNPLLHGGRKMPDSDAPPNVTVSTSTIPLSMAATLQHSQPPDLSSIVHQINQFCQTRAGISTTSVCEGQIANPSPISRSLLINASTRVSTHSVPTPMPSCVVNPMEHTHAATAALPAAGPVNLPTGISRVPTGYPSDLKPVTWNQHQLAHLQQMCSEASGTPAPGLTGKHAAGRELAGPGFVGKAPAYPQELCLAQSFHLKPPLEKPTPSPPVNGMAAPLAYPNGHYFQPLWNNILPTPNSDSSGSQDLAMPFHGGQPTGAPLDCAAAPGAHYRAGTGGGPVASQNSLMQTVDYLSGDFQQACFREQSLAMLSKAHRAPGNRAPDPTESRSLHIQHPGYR
Chain of UniProt O96013 (whole entry, looked up): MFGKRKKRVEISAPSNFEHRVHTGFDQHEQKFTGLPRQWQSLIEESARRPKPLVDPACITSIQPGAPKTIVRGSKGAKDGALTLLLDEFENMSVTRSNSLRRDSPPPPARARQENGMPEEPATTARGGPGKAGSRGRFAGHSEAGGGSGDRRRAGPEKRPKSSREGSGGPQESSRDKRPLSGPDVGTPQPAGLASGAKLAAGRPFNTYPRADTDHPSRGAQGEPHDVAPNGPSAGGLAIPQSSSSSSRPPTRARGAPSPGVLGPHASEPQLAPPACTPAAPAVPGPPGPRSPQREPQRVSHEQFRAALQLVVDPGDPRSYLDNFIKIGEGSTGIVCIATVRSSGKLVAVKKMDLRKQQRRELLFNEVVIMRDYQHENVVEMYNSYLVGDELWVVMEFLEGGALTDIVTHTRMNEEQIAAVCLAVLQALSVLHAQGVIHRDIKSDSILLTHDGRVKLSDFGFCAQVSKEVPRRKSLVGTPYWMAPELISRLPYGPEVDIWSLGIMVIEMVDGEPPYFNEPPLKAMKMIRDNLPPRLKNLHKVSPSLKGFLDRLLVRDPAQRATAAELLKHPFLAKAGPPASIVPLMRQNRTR
Chain of UniProt Q93015 (whole entry, looked up): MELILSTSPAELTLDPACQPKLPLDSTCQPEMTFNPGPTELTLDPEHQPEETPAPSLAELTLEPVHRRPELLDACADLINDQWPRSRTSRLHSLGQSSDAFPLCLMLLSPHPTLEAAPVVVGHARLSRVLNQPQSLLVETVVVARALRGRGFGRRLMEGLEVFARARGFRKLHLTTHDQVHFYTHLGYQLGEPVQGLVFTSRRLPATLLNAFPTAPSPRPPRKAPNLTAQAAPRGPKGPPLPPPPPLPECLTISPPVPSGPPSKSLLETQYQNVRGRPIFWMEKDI
Chain of UniProt P0A0C1 (whole entry, looked up): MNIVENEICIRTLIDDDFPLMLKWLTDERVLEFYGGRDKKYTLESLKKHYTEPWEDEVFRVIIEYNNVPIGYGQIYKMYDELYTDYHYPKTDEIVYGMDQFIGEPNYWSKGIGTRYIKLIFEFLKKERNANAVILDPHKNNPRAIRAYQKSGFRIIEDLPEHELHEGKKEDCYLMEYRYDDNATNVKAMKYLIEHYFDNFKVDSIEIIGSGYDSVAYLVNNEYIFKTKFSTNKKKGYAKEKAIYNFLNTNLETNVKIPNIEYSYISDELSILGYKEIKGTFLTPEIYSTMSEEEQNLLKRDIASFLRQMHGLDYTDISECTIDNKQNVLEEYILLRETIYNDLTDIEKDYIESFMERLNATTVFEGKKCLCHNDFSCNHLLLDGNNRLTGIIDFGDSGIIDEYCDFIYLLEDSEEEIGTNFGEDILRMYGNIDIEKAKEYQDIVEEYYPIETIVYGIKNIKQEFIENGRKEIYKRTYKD
Chain of UniProt Q15349 (whole entry, looked up): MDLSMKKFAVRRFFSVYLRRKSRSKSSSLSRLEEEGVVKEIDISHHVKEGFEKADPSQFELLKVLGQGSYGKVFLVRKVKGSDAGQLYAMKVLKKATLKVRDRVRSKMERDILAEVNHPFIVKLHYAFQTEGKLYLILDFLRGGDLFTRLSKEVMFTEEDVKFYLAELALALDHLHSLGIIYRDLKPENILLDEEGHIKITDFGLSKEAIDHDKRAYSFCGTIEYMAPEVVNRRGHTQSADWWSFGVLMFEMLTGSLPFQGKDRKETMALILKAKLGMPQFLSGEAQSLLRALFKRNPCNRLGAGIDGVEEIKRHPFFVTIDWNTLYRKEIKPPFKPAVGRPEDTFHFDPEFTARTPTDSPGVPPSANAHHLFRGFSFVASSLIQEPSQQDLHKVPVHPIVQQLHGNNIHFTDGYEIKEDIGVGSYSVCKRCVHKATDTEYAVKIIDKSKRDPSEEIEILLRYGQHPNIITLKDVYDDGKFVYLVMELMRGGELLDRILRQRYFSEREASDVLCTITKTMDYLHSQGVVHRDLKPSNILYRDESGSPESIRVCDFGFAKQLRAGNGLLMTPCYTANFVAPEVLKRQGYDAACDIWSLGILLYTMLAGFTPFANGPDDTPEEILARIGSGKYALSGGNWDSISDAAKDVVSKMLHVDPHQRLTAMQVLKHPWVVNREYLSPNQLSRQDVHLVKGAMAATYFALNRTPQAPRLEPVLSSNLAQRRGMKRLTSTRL
Chain of UniProt Q99527 (whole entry, looked up): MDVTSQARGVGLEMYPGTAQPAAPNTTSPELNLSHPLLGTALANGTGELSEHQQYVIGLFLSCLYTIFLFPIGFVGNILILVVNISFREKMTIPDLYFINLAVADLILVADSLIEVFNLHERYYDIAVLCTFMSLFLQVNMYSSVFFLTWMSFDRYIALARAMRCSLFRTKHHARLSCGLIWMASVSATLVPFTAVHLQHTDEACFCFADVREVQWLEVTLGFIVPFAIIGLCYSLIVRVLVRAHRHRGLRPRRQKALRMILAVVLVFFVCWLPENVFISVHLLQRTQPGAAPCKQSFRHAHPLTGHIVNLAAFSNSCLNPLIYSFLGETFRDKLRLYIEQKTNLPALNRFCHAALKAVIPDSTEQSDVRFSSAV

| SMILES | target | assay | system | conditions | how to read | quantity | value |
| --- | --- | --- | --- | --- | --- | --- | --- |
| Cc1ccccc1N1CC[N+](C)(C)CC1.[I-] | Nicotinic acetylcholine receptor alpha1/beta1/epsilon/delta (Mus musculus, UniProt P02716+P04756+P09690+P20782) | ion current, inhibitor, two-electrode voltage clamp | Xenopus oocytes | 30 µM, after co-application, unit not given, added: ACh 30 µM | relative to: ACh alone | ACh response | 0.46 ± 0.214 |
| COc1cc(N)c(Cl)cc1C(=O)NC1CN2CCC1CC2 (stereo not shown) | G-protein coupled estrogen receptor 1 (GPER1, Homo sapiens, UniProt Q99527) | β-arrestin recruitment, TANGO luminescence, measured: GPER |  | concentration not given | relative to: basal luminescence | log2 fold change | 0.526 |
| COc1ccc(N2C(=O)N(c3c(C)cccc3Cl)Cc3cnc(Nc4ccc(C5CCN(C)CC5)cc4OC)nc32)nc1 | Serine/threonine-protein kinase PAK 4 (PAK4, Homo sapiens, UniProt O96013) | kinase activity |  | 0.5 µM |  | inhibition | 2% |
| O=C(O)COP(=O)(O)O | TPI1 (Saccharomyces cerevisiae, UniProt P00942, Y208F) | enzyme activity, competitive inhibitor, GPDH/NADH-coupled |  | pH 7.5, 25 °C, ionic strength 0.1 NaCl, added: glyceraldehyde 3-phosphate substrate | relative to: mutant over wild type | Ki ratio | 440 |
| C=C(C)[C@H]1Cc2c(ccc3c2O[C@@H]2COc4cc(OC)c(OC)cc4[C@@H]2C3=O)O1 | Monoglyceride lipase (MGLL, Homo sapiens, UniProt Q99685) | gel-based ABPP | U-87 MG | concentration not given, 2 h, added: 10 nM LEI-463-Cy5 |  | probe labelling | decreased |
| CN(C(=O)n1cnc(-c2ccc[n+]([O-])c2)c1)C1CCCCC1 | kainate receptor, rat | binding |  | 10 µM, added: [3H]kainic acid |  | inhibition | -9% |
| NCCc1c[nH]c2ccc(O)cc12 | N-alpha-acetyltransferase 80 (NAA80, Homo sapiens, UniProt Q93015) | substrate, DTNB |  | 2 mM, 30 min, 37 °C, added: acetyl-CoA 500 µM |  | product formation | 0 µM |
| [2H]c1c([2H])c([C@]2([2H])CCCN2C(=O)C(C)(C)Oc2ccc3cn[nH]c3c2)c([2H])c([2H])c1C([2H])([2H])[2H] | cAMP-dependent protein kinase catalytic subunit alpha (PRKACA, Homo sapiens, UniProt P17612) | KINOMEscan |  | 1 µM | relative to: DMSO control | remaining binding | 95% |
| C[C@@H](NC(=O)[C@@H](N)Cc1ccc(O)cc1)C(=O)NCC(=O)N(C)[C@@H](Cc1ccccc1)C(=O)NCCO | Mu-type opioid receptor (Oprm1, Mus musculus, UniProt P42866) | agonist | mouse spinal cord membranes | 31.6 nM | relative to: basal binding | GTPγS binding | 0.62% and 0.49% and 1.47% and -1.99% and -0.41% and -3.56% and -3.06% |
| O=C(O)Cc1c[nH]cn1 | Sodium- and chloride-dependent taurine transporter (SLC6A6, Homo sapiens, UniProt P31641, Y138A) | binding, microscale thermophoresis |  | 62.5 µM, room temperature, added: 50 nM labelled protein | higher = more binding | normalised MST signal | 0.288 |
| NC(=O)c1coc(C(=O)CCl)c1 | Ubiquitin carboxyl-terminal hydrolase isozyme L1 (UCHL1, Homo sapiens, UniProt P09936) | covalent, intact protein LC-MS |  | 12.5 µM |  | labelling | 28.2% |
| CC(=O)CCCNC(=O)CCNC(=O)[C@H](O)C(C)(C)COP(=O)(O)OP(=O)(O)OC[C@H]1O[C@@H](n2cnc3c(N)ncnc32)[C@H](O)[C@@H]1OP(=O)(O)O | gltA, with oxaloacetate (Thermoplasma acidophilum, UniProt P21553, D318G) | complex formation, initial-velocity fluorescence kinetics |  | pH 8.0, 20 °C, added: oxaloacetate 75 µM |  | apparent binding constant | 27 ± 3 µM |
| C[C@H]1CN(c2n[nH]c3nc(N[C@H]4CC[C@H](NS(=O)(=O)CCC(F)(F)F)CC4)ncc23)CCO1 | Protein FAM222B (Homo sapiens, UniProt Q8WU58) | competitor, Kinobeads competition | HEK293, K562, placenta extract | 0.032 µM | relative to: vehicle | remaining binding | 97% |
| O=C(NCc1ccccc1)[C@@H]1CS[C@H]2CS[C@H](CS)N21 | sfhI (Serratia fonticola, UniProt Q9RMI1) | activity class |  | concentration not given |  | activity | inactive |
| Clc1cccc(COc2ccccc2CNCc2cccnc2)c1 | aacA-aphD, AAC(6')-Ie domain (Staphylococcus aureus, UniProt P0A0C1) | neomycin acetylation, inhibitor |  | added: neomycin |  | highest concentration without inhibition | > 200 µM |
| COc1ncccc1-c1cnn2ccc(N3CCN(C(=O)OC(C)C)CC3)nc12 | Ribosomal protein S6 kinase alpha-2, N-terminal kinase domain (RPS6KA2, Homo sapiens, UniProt Q15349) | KINOMEscan binding |  | 1 µM | relative to: untreated control | remaining binding | 95% |

For quick reference, copied from above:
| SMILES | target | assay | system | conditions | how to read | quantity | value |
| --- | --- | --- | --- | --- | --- | --- | --- |
| Cc1ccccc1N1CC[N+](C)(C)CC1.[I-] | Nicotinic acetylcholine receptor alpha1/beta1/epsilon/delta (Mus musculus, UniProt P02716+P04756+P09690+P20782) | ion current, inhibitor, two-electrode voltage clamp | Xenopus oocytes | 30 µM, after co-application, unit not given, added: ACh 30 µM | relative to: ACh alone | ACh response | 0.46 ± 0.214 |
